Assay results from different studies.
Compare with care: the assays were run in different laboratories. Several values in a cell are separate wells, animals, samples, runs or records. ± marks the error that the study gave.

Structure (SMILES) | assay | system | conditions | how to read | quantity | value
N=C(N)NCCC[C@@H]1NC(=O)[C@H](CC(=O)NC23CNCCNCC(N)(CNCCNC2)CNCCNC3)NC(=O)[C@@H](Cc2ccccc2)NC(=O)[C@H](CC(=O)O)NC(=O)CNC1=O [copper-64 labelled] |  | Nu/Nu mouse, male, tumour-bearing, bone | intravenous, 10 µCi, 2 h |  | tissue uptake | 0.46 ± 0.22 %ID/g
N=C(N)NCCC[C@@H]1NC(=O)[C@H](CCCCNC(=O)CC[C@H](NC(=O)CCOCCOCCOCCOCCNC(=O)CC[C@H](NC(=O)CN2CCN(CC(=O)O)CCN(CC(=O)O)CCN(CC(=O)O)CC2)C(=O)NCCOCCOCCOCCOCCC(=O)N[C@@H](CCC(=O)NCCCC[C@@H]2NC(=O)[C@@H](Cc3ccccc3)NC(=O)[C@H](CC(=O)O)NC(=O)CNC(=O)[C@H](CCCNC(=N)N)NC2=O)C(=O)NCCCC[C@@H]2NC(=O)[C@@H](Cc3ccccc3)NC(=O)[C@H](CC(=O)O)NC(=O)CNC(=O)[C@H](CCCNC(=N)N)NC2=O)C(=O)NCCCC[C@@H]2NC(=O)[C@@H](Cc3ccccc3)NC(=O)[C@H](CC(=O)O)NC(=O)CNC(=O)[C@H](CCCNC(=N)N)NC2=O)NC(=O)[C@@H](Cc2ccccc2)NC(=O)[C@H](CC(=O)O)NC(=O)CNC1=O [indium-111 labelled] |  | female athymic nude mice, intestine | intravenous, 3 µCi, 0.5 h, U-87 MG glioma xenograft |  | tissue uptake | 5.5 ± 1.61 %ID/g
CC(C)C[C@H](NC(=O)[C@@H]1CCCN1C(=O)[C@H](CCCCN)NC(=O)[C@@H](N)CO)C(=O)N1CCC[C@H]1C(=O)N[C@@H](CCC(=O)O)C(=O)N[C@H](C(=O)N[C@H](C(=O)N[C@@H](CC(=O)O)C(=O)N[C@@H](CCC(=O)O)C(=O)N[C@@H](Cc1ccc(O)cc1)C(=O)N[C@@H](Cc1cn(CCOCCOCCOCCNC(=O)CCc2ccc(O)c(CN(CCN(CC(=O)O)Cc3cc(CCC(=O)NCCCC[C@H](NC(=O)N[C@@H](CCC(=O)O)C(=O)O)C(=O)O)ccc3O)CC(=O)O)c2)nn1)C(=O)O)[C@@H](C)O)C(C)C [gallium-68 labelled] | PET | NMRI nu/nu mouse, LNCaP xenograft |  |  | time to maximum tumour uptake | 2 h
CSCC[C@H](NC(=O)[C@H](CC(C)C)NC(=O)[C@H](Cc1c[nH]cn1)NC(=O)CNC(=O)[C@@H](NC(=O)[C@H](C)NC(=O)[C@H](Cc1c[nH]c2ccccc12)NC(=O)[C@H](CCC(N)=O)NC(=O)[C@H](CC(N)=O)NC(=O)CNC(=O)[C@H](Cc1ccc(O)cc1)NC(=O)[C@H](CCCNC(=N)N)NC(=O)[C@H](CCC(N)=O)NC(=O)[C@@H]1CCCN1C(=O)CN1CCN(CC(=O)O)CCN(CC(=O)O)CCN(CC(=O)O)CC1)C(C)C)C(N)=O [indium-111 labelled] | radio-HPLC | Swiss nu/nu mice, blood | intravenous, 1 nmol, 15 min |  | intact peptide | 4.3% and 2.4%
CCCC[C@@H](NC(=O)[C@H](Cc1c[nH]c2ccccc12)NC(=O)[C@@H](N)CSC1CC(=O)N(CCCCCC(=O)NN=C(CO)[C@]2(O)Cc3c(O)c4c(c(O)c3[C@@H](O[C@H]3C[C@H](N)[C@H](O)[C@H](C)O3)C2)C(=O)c2c(OC)cccc2C4=O)C1=O)C(=O)N[C@@H](CCC(=O)O)C(=O)N[C@@H](C)C(=O)N[C@@H](C)C(=O)N[C@@H](Cc1ccc(O)cc1)C(=O)N[C@@H](CCC(N)=O)C(=O)N[C@H](CCCNC(=N)N)C(=O)N[C@@H](Cc1ccccc1)C(=O)N[C@@H](CC(C)C)C(N)=O (stereo partly shown) |  | acetonitrile/water | one month, -20 °C |  | stability | stable
N=C(N)NCCC[C@@H]1NC(=O)[C@H](CCCCNC(=O)CC[C@H](NC(=O)CCOCCOCCOCCOCCNC(=O)CN2CCN(CC(=O)O)CCN(CC(=O)O)CCN(CC(=O)O)CC2)C(=O)NCCCC[C@@H]2NC(=O)[C@@H](Cc3ccccc3)NC(=O)[C@H](CC(=O)O)NC(=O)CNC(=O)[C@H](CCCNC(=N)N)NC2=O)NC(=O)[C@@H](Cc2ccccc2)NC(=O)[C@H](CC(=O)O)NC(=O)CNC1=O [indium-111 labelled] |  | athymic nude mice, female, U-87 MG glioma xenograft, tumour and blood | intravenous, 1 h | reference: tumour over blood | tumour to tissue ratio | 9.8 ± 0.78
CC(C)C[C@@H]1NC(=O)[C@H](C(C)C)NC(=O)[C@H](CO)NC(=O)CNC(=O)CNC(=O)[C@H](CCCNC(=N)N)NC(=O)[C@@H]2CCCN2C(=O)[C@@H](NC(=O)CC[C@H](NC(=O)c2ccc(N(C)Cc3cnc4nc(N)nc(N)c4n3)cc2)C(=O)O)C(C)(C)SSC[C@@H](C(=O)O)NC(=O)CNC(=O)[C@H]([C@@H](C)O)NC(=O)[C@H](C(C)C)NC1=O | HPLC | Phosphate buffer | pH 8.0, 70 °C |  | degradation rate constant | 0.0031 h⁻¹
N=C(N)NCCC[C@@H]1NC(=O)[C@H](CCCCNC(=O)CCOCCOCCOCCOCCNC(=O)CN2CCN(CC(=O)O)CCN(CC(=O)O)CCN(CC(=O)O)CC2)NC(=O)[C@@H](Cc2ccccc2)NC(=O)[C@H](CC(=O)O)NC(=O)CNC1=O [indium-111 labelled] |  | athymic nude mice, female, U-87 MG glioma xenograft, tumour and brain | intravenous, 1 h | reference: tumour over brain | tumour to tissue ratio | 36.5 ± 13.3
CCCC[C@H](NC(=O)CNC(=O)CNC(=O)c1ccc(NN)nc1)C(=O)N[C@H]1CC(=O)NCCCC[C@@H](C(N)=O)NC(=O)[C@H](Cc2c[nH]c3ccccc23)NC(=O)[C@H](CCCNC(=N)N)NC(=O)[C@@H](Cc2ccccc2)NC(=O)[C@H](Cc2c[nH]cn2)NC1=O [technetium-99m labelled] |  | C57 mouse, B16/F1 melanoma-bearing | intravenous, 4 h | reference: tumour over muscle | tissue uptake ratio | 331
CCCC[C@H](NC(=O)CCCCCCCNC(=O)c1ccc(NN)nc1)C(=O)N[C@H]1CC(=O)NCCCC[C@@H](C(N)=O)NC(=O)[C@H](Cc2c[nH]c3ccccc23)NC(=O)[C@H](CCCNC(=N)N)NC(=O)[C@@H](Cc2ccccc2)NC(=O)[C@H](Cc2c[nH]cn2)NC1=O [technetium-99m labelled] |  | C57 mouse, B16/F1 melanoma, stomach | intravenous, 24 h |  | uptake | 0.11 ± 0.02 %ID/g

Some of these lines once more:
Structure (SMILES) | assay | system | conditions | how to read | quantity | value
CCCC[C@H](NC(=O)CNC(=O)CNC(=O)c1ccc(NN)nc1)C(=O)N[C@H]1CC(=O)NCCCC[C@@H](C(N)=O)NC(=O)[C@H](Cc2c[nH]c3ccccc23)NC(=O)[C@H](CCCNC(=N)N)NC(=O)[C@@H](Cc2ccccc2)NC(=O)[C@H](Cc2c[nH]cn2)NC1=O [technetium-99m labelled] |  | C57 mouse, B16/F1 melanoma-bearing | intravenous, 4 h | reference: tumour over muscle | tissue uptake ratio | 331
